Measured values gathered from unrelated publications.
Every numbered part comes from another study and shows a few of its results, in no order. Positions count from the first letter of the parent shown.

Sample 1
Target: CREB3L2, bZIP domain (human)
Technique: DHFR protein complementation
Sample: yeast
Setting: single substitutions, most at no-binding floor
Reference: wild-type JUN-FOS pair
Direction: higher = stronger binding
Parent: JUN, bZIP domain (human); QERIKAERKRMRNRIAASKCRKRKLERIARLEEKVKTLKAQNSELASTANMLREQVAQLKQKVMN; partner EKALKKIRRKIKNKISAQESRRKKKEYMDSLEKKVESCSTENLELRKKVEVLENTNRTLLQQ
Variant | binding fitness [natural log]
K34R | -1.52
A57Q | -1.47
Q55A | -1.3
S47K | -1.21
M51Q | -1.6
Q55H | -1.58
A40S | -1.44
T48Q | -1.32
E32F | -1.55
E33M | -1.49
L52R | -1.53
E44V | -1.36
L31C | -1.49
A49V | -1.42
Q55D | -1.41
M51L | -1.53

Sample 2
Cell line: yeast with cyclin E2-Cln2 chimera
Observed: cell growth
Mode: binder
Technique: competitive growth deep sequencing
Molecule type: peptide
Concentration: concentration not given
Setting: peptide tiling library
Direction: direction not given
Sequence | growth enrichment score
IPMIAKNLMCELDE | 0.897
PKNAKRNLSSEFAN | 0.835
HPESPPRKRLKSKGSD | 0.542
MNQELLSVGSKRRRTG | 1.33
TQERKQIHCLSEDELS | -0.0164
TLPYDLACTGGDFVLF | -0.00438
ASVLSKPIFCFVKD | -0.255
GTPKRCLDLSNLSSGE | 0.0952
IFNKPECGRVQRAIFQ | 0.437
PKRAKRKLYTSEISSP | 0.713
TSSAQRRLEIPSGGAD | -0.139

Sample 3
Target: Histone acetyltransferase KAT6A, winged helix 2, GST fusion (KAT6A, Homo sapiens, UniProt Q92794, residues 85-181)
Technique: protein binding microarray
Molecule type: double-stranded DNA, one strand shown
Sample: in vitro
Concentration: not given
Setting: 8-mer, flanks averaged, mean of 2 arrays, mostly near background
Reference: not given
Direction: higher = stronger binding
Construct (chain): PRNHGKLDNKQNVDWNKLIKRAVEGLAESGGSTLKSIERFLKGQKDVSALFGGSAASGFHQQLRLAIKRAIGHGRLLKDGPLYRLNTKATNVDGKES
Oligonucleotide | E-score
GACTACAA | -0.13
CGTACATC | -0.298
CCAGATCG | 0.00365
GATCCTAA | -0.196
AGTCGTAT | -0.123
CGACTTTA | -0.0396
ACGAGCAT | -0.0757
ACGGTCCG | 0.0671
AACAGGGC | 0.076
ACCGTCCA | 0.0217
AGAGCTCC | -0.0438
CGGCGCGA | 0.344
ATATGTAC | -0.166
GATTTCTA | 0.0734
AACCCCGT | -0.14
CTTATCCA | -0.0783
AAATCGCT | -0.0703
CAAAAGGA | -0.00067
CCTCCATC | 0.0111
GTAATACA | 0.0183
CTGTTGCA | -0.00151
CGGCTAGC | 0.0991
ACAACACA | -0.0186
ATCTAAGA | -0.0655
AACCACTT | -0.21

Sample 4
Target: RING finger protein unkempt homolog, zinc fingers 1-6, SBP tag (UNK, Homo sapiens, UniProt Q9C0B0, residues 30-357)
Chain of UniProt Q9C0B0 (30-357, looked up): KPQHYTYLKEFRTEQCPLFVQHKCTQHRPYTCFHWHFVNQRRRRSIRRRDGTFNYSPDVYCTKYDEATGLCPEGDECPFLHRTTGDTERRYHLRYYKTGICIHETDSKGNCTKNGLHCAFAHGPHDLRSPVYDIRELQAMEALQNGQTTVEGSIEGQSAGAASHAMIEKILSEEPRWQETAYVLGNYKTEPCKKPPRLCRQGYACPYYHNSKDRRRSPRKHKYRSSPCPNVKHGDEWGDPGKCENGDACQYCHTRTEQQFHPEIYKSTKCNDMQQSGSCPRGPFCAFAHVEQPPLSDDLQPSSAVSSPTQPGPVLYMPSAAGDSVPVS
Technique: RNA Bind-n-Seq
Molecule type: RNA
Sample: in vitro
Concentration: 100 nM
Setting: RNA with constant flanks, vertebrate orthologous sites, ends assumed
Reference: input RNA pool
Direction: higher = stronger binding
All sequences stand within: GGGAGUUCUACAGUCCGACGAUC … CAACAGAGGAUUGAGCAUCA
Oligonucleotide | bound/input enrichment
GAACACUGAAAAGACUUCCAUGCUUAUGUUAAAUGCUAAAAGUUAAGCUGCAGUAUAUUAGUAAAUAAUUACUUUAUUUCUGCAGUAUGGUUUGCUUUUUUAAAGUCAGACAGUAGACAG | 0.589 ratio
CCAGCCUUCCGUGUAGGGUCGGCCUUAAAUCUAUAGGAUUUAUGGCAAAUGUAUUAUAUAUAAUUGCAUUGAGUUUAAUAUUUUUUAUUACCCUGUAAAUGAAGAUGGCAUCUCCUACAU | 0.202 ratio
GUGGCACCCACUGUGAGAGGGAGUAGGGGGAGCCCAGGAUGACCCUCAGCUGUUCCAGUUAAGUAUUUUUUCUUUUUUUAAAAUUACUGUAUUUAUUAUGACGAUGGUGACUCCCCAGUG | 0.577 ratio
UCUUAUACUUAAACUGGUAUUUUCAAACAAUAGGAACCUAUUUUUCUUUUCUACAGUUUAGUGUGUAUCCGGCUUAUACAUGGAAGACUAAAAUGUUGAUUUGCUAAGUGUGGUCUUUGC | 0.351 ratio
GCUUUAGAAAUGAGCAGAUAGGGCAGUUAGGUGGGUCCCCGCCUCAAGAAAAACCCUAAACCGAUUCCUUAACCAUCUGACUAGAGACUGGAGGUUAGCAUUUCCGUUUGUUUUUAUUUU | 0.459 ratio
UUACAGUCAUUGAUGGACUCUAUUUUUUUAUUAUUACUUGGACUUUGGUCGUUUUUAUACUAGCAAAAUGUCUUGUUUUAAUUUGUGUUUUUUUUUGGGGGGGGAGGGAGUGAACUUGCU | 1.68 ratio
AACAGUAGAAUUACAUAAUACUAAAGUUGCAGUUGAAAGGAUAUUCAAGUUAUGUGUUGGUAGUUACUAAAAGAAUUAUAGCUGUUAUUGCCUUGUAUUUAUAGCCCUUGUUUCAGGUUU | 1.05 ratio
GUGUUGGUGCGGAGUGCUCUGUACCAGUGCUCAUCGUCCCUUCUUCAUACCAACUGUCCUAGUUACAGGAAUAUUUUUAAAAGUUUUACAUUGCUGUAUAUUCAAAGAUUUGUUUAAUAU | 0.252 ratio
UUGUGAUCAGCUCUCCAAACAGAAAUAGUAGUAAAAAAAAUAAGCAAAAUGAUAUUUGUAUAGAAAAAACAGAUGUUAAAUCAUGUAAAGUAAAUAUUGCCAGCAUUCCAGGCCCUAAAG | 2.39 ratio
AGAAAACUUUAGCCAGGAGUCUGAAAGUAGACAUACUGGUUCCUGGUUGUCUUCCUCUCUAAGAAAUAGAUGCACACCUUUAUUUUCAAGGAGACGUCGAGAAGGAAGAGAUGAAUCUAC | 0.239 ratio
UACCUUUUGUAGGCCAAAUACCUUCCUUCCACUGCUCUGCCAACUGGAAGCACAGAAAACUAGAAUUUCAUUUAUUUUGUUUAAAAAAAAUUGAUUUCUUGUAACAUCCAAUAGGAAUGC | 0.648 ratio

Sample 5
Target: Sal-like protein 4, full length isoform B (SALL4, Homo sapiens, UniProt Q9UJQ4-2, residues 1-616)
Technique: universal PBM
Molecule type: double-stranded DNA, one strand shown
Sample: in vitro
Concentration: not given
Setting: 8-mer, flanks averaged, mean of replicates
Direction: higher = stronger binding
Oligonucleotide | E-score
TCATCAAA | 0.0142
CCCTGGGA | -0.403
AGGCGATC | -0.129
GACACCCA | -0.207
GAGGGCAA | -0.0876
TGTCACAA | 0.102
CCAGGGAG | -0.317
AAGTACAC | 0.187
AATCTACT | 0.129
GACTGGGC | -0.268
AAGTTAGG | -0.0837
ATACGTAA | 0.308
ATTACATG | 0.361
CGCCCGAA | -0.163
GATTAGAC | 0.0692
CCTGGCAA | -0.148
GAGCTGCA | -0.195
GTGCAGGA | -0.0878
CAAGAGGG | -0.0314
CTACTAAG | -0.0537
AGTGGGAA | -0.0329
AATGACTA | 0.158
CACTCCCC | -0.216
ACCGTATC | -0.0833
GAACAGTC | -0.142

Sample 6
Target: RNA binding protein fox-1 homolog 2, RRM domain, GST-SBP tag (RBFOX2, Homo sapiens, UniProt O43251-10, residues 100-194)
Technique: RNA Bind-n-Seq
Molecule type: RNA
Sample: in vitro
Concentration: 365 nM
Setting: natural RNA segment, single round, ends assumed
Reference: no-protein control
Direction: higher = stronger binding
All sequences stand within: GGGAGUUCUACAGUCCGACGAUC … UGGAAUUCUCGGGUGCCAA
Construct (chain): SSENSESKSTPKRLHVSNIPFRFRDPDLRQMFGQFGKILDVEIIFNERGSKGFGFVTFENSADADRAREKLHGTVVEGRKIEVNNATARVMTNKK
Oligonucleotide | RBNS enrichment (R)
UCCUAAACGAAUGCCUAGCAUAGAGAAAAUACUUAAUACACAUUUGUUGACUUAAAUUUAAUUCAAGGAUUGAAAAAUUAACUGGAUAUCUUGAAAUAUACAGUAAUGAU | 1.42
AAGCGUGUCUGGAAAGGGGUUCAUGCCUCUAAGGGGCUUACGGAGAUGCUGAGGUACUGCCUCGCCUCAUGGGUGUGUCAGGUUUCUACACCUGUGUGCUUUUCUAGAAA | 0.343
CUCUGGCCUUGCUCUUUCAAGUCUUGUUUGAAAAAUAAUCCAGUCAGCUGACUUCCAGUACUGUGAAUCCGCCCCUGUCAGAAGUGGCUGACCCUGUUUCUCCUCAGAUG | 0.342
UUGCCUGGGAGCAAACCGCCAGGACGCAGCCUCCACGCCGCACCUGCCACAUUCAGCCCUGCCCAGGAAGGAACACAUGACCCUUCUGUCUGUGACUGUUGCUGAGUCUC | 0.274
UGAAUACCAGGAUUGACUGCAUCCCUUUAAAGAAGUUUUAUGUCCCUGACUCUGGCUAAAAUUAUCUAAUUUCCAGAUGCUUUUGUAGAUGACUGAAGUAUUUGUGAGCC | 0.764
AUCCUUAUAGUCAAUUCUGUGCCUAGGAUUUUGCCAGGGAACAGUUCACUGACUAGGAAAAGCACUACAUUUUAAAUUCAGCAUUAGUGCAUUGGGAAGGAUCUUUACUG | 0.329
GUGACUGAGGCUAUGGAAAAAGGGUUCUGCAAAUAGCAUUCUGGGAUUGUGGGGAGAAAUCCCAGGUCAGGCCACAGCUGCAUGUUGCAUUAAAUGUGUUCUCAUGUCGC | 1.52
AAGCAGGGAUACCCUCUUCUUUAGGACUAGAGCUGCCAUUCUUUUCAUCUUUAGCACAAGGAAGGUAUUUAAGUGAGCCAGAGACAAACAGAGCCAUUUUAGUCUUCAUA | 0.558
CUUCACUACUUCUAUGGUAGGGUUGUCUGAAAUUCCCUUUCAGGCUGUGGGUACUGGUCUUGGGUUCUAGUCAUAAGGGGUUCCUUAUAAGGAGCAGGCGGAGGGGAGUA | 0.458
UCAAAGUGUUUGUGUCCCUUGCCAGCCUCCCUGGGGUCUGGGGACCUGCAGCAGCAUGUCUGGCAAACUGAGUCGCCCUCCUGCCUCCAGCUCUCUGUUGAGCAGAGGGA | 3.07
GAUCUUUUUUUUUUUUUUUUUUAAAGAAGAAAAGAAAGAAACGAAAAGAAAAAGCUGAAGAAAUCAAGAACCAAUUGAAAUUCCUUUGGACACUUUUUUUUUUUUGUCUG | 0.457
UCUGCUCCUCACCUGCAGAAGCCAGUUUGUUUGGCCAUGUGACAAUUGUCCUGUGUUUUUAUAGCACCCAAAUCAUUCUAAAAUAUGAACAUCUAAAAACUUUGCUAGGA | 0.507
